Measured values from different studies.
Numbers after ± are the reported error.
Cell line: HCT-15

The IC50 of `Cc1cc(C)c(-n2c[n+](-c3c(C)cc(C)cc3C)c3c2-c2cccc4cccc-3c24)c(C)c1.[Cl][Pd-]([Cl])[CH2]C=Cc1ccccc1` is reported as 10.3 µM (cell growth or viability, MTT; 72 h).
`C1CCN(C2CCNCC2)CC1.CCCC(CCC)C(=O)[O][Pt]([OH])([Cl])[Cl].CCCCN` gave an IC50 of 14.4 ± 2.05 µM (cell growth; 72 h).
The IC50 of `F[P-](F)(F)(F)(F)F.OCP(CO)CO.OCP(CO)CO.OCP(CO)CO.OCP(CO)CO.[Cu+]` is reported as 0.54 µM (cell growth or viability, MTT; 72 h).
`CC/C=C\C/C=C\C/C=C\C/C=C\C/C=C\C/C=C\CCC(=O)Nc1ccn(C2OC(CO)C(O)C2(F)F)c(=O)n1` (stereo not shown) has a CC50 of 87.5 µM (NCI60 screen).
With `Cc1cc(C)c(N2CCN(c3c(C)cc(C)cc3C)C2=[Se])c(C)c1.[Cl][Au]` the IC50 was 3.2 µM (cell growth or viability, MTT; 72 h).
For `Cc1cccc(O)c1C(=O)OCC1(O)C(Nc2ccc3c(c2)Cc2ccccc2-3)C(N)C(NC(=O)N(C)C)(C(C)O)C1(C)O` (stereo not shown), the GI50 was 1.46 µM (cell growth or viability, SRB).
With `[Cl][Ag].[Se]=c1n(C2CCCCC2)ccn1C1CCCCC1` the IC50 was 8.3 µM (cell growth or viability, MTT; 72 h).
For `CC(C)c1cccc(C(C)C)c1-n1c[n+](-c2c(C(C)C)cccc2C(C)C)c2c1-c1cccc3cccc-2c13.[Cl][Pd-]([Cl])[CH2]C=Cc1ccccc1`, the IC50 was 10.6 µM (cell growth or viability, MTT; 72 h).
`Cc1cc(C)c(-n2ccn(-c3c(C)cc(C)cc3C)c2=[Se])c(C)c1.[Cl][Au]` gave an IC50 of 2.7 µM (cell growth or viability, MTT; 72 h).
`CC1=CCC23OC2(C)CCC2C(C[N+](C)(C)C)C(=O)OC2C13.[I-]` (stereo not shown) has an inhibition of 59.3% (cell growth or viability, SRB; 8.3 µM).

A few entries again:
`CC/C=C\C/C=C\C/C=C\C/C=C\C/C=C\C/C=C\CCC(=O)Nc1ccn(C2OC(CO)C(O)C2(F)F)c(=O)n1` (stereo not shown) has a CC50 of 87.5 µM (NCI60 screen).
